Assay results collected from several papers.
Protocols differ between the studies behind these lines. ± marks the error that the study gave.
Cell line: MCF7

Compound = CCOc1cccc2c1[O][Pt-2]1([Cl])[N+](=C2)CC[NH+]1c1ccccc1 (stereo not drawn); read-out = cell growth or viability; technique = MTT; IC50 = 39 µM
Compound = CCCCCCCCCCCCOc1c(O)cc(C(=O)O[C@@H]2Cc3c(O)cc(O)cc3O[C@@H]2c2cc(O)c(O)c(O)c2)cc1O; read-out = cell growth or viability; technique = CCK-8; time = 24 h; IC50 = 96.9 µM
Compound = CC(=O)[O][Pt]1([O]C(C)=O)[O]C(=O)C(=O)[O]1.NC1CCCCC1N; read-out = cytotoxicity; time = 72 h; IC50 = 46.6 ± 1.48 µM
Compound = C1=CCC=C1.[Cl][Pd-2]1([Cl])[N+](=P(c2ccccc2)(c2ccccc2)C2C=CC=C2)Cc2cccc[n+]21.[Fe+2]; read-out = cell growth or viability; technique = MTT; time = 74 h; IC50 = 10.2 µM
Compound = COc1ccc(CN2C(=O)C(=O)c3cc(NC(C)=O)ccc32)cc1; read-out = cell growth or viability; technique = MTT; time = 48 h; IC50 = 3.37 µM
Compound = COc1cc2c(=O)c(-c3ccc4c(c3)OCO4)coc2c2c1OC(C)(C)C=C2; read-out = cell growth or viability; technique = MTT; time = 72 h; IC50 = 11.1 µM
Compound = COc1ccc2cc3[n+](cc2c1OCc1cn(Cc2c(F)cccc2F)nn1)CCc1cc2c(cc1-3)OCO2; read-out = cell growth or viability; technique = MTT; IC50 = 174 µM
Compound = CC(=O)N[C@@H]1[C@@H](OC(C)=O)[C@H](OC(C)=O)[C@@H](COC(C)=O)O[C@H]1Sc1nnc(-c2cc3ccccc3[nH]2)n1-c1ccccc1; read-out = cell growth or viability; technique = MTT; IC50 = 17.2 µM
Compound = CSc1nc(Nc2ccc(/C(C)=N/NC(=O)c3ccccc3Cl)cc2)c(C#N)c(-c2ccccc2)n1; read-out = cell growth or viability; technique = MTT; time = 48 h; IC50 = 13.5 µM
Compound = CCN(CC)c1ccc2c(c1)[O][Pd]([CH2]C#N)[N](Cc1ccccc1)c1ncccc1N=C2; read-out = cell growth or viability; technique = MTT; time = 48 h; IC50 = 27.7 µM
Compound = CC(=O)O[C@H]1CC[C@]2(C)[C@H]3CC=C4[C@@H]5[C@@H](C)[C@H](C)CC[C@]5(C)CC[C@@]4(C)[C@]3(C)CC[C@H]2C1(C)C; read-out = cell growth or viability; technique = resazurin; time = 96 h; IC50 = 13.8 µg/mL
Compound = CS/C(=N/N=C(\C)c1ccc(S(=O)(=O)N2CCC(C)CC2)cc1)SCc1ccccc1; read-out = cell growth; technique = MTT; IC50 = > 30 µM
Compound = O=C(CCl)Sc1nnc(-c2n[nH]c(=O)c3ccccc23)o1; read-out = cell growth or viability; technique = MTT; time = 48 h; IC50 = 5 µM
Compound = CC(C)c1cccc(C(C)C)c1N1CCN(c2c(C(C)C)cccc2C(C)C)C1=[Se].[Cl][Au]; read-out = cell growth or viability; technique = MTT; time = 72 h; IC50 = 5.4 µM
Compound = NC(=S)NNC(=O)c1cc2ccc(O)cc2oc1=O; read-out = cell growth or viability; technique = SRB; time = 72 h; IC50 = 4.5 µM
Compound = COc1c(O)c(Br)c2oc3c(Br)c(O)c(CC=C(C)C)c(O)c3c(=O)c2c1CC=C(C)C; read-out = cell growth or viability; time = 48 h; IC50 = 16 µM
Compound = CCCCCCCCC=CCCCCCCCC(=O)OC(COC(=O)Cc1c(C)n(C(=O)c2ccc(Cl)cc2)c2ccc(OC)cc12)COP(=O)([O-])OCC[N+](C)(C)C (stereo not drawn); read-out = cell growth or viability; technique = SRB; time = 72 h; IC50 = 58.2 µM
Compound = C[C@@H]1CC[C@@H]([C@@](O)(CNCc2ccc(F)cc2)COCc2ccc(F)cc2)[C@H](OCc2ccc(F)cc2)C1; read-out = cell growth or viability; technique = MTT; time = 72 h; IC50 = 0.91 µM
Compound = Nc1ncnc2c1sc1sc3c(N)ncnc3c12; read-out = cell growth or viability; technique = MTT; IC50 = 4.92 µM
Compound = CSc1nc(Nc2ccc(C(=O)N/N=C/c3c(Cl)cccc3Cl)cc2)c(C#N)c(-c2ccccc2)n1; read-out = cell growth or viability; technique = MTT; time = 48 h; IC50 = 9.85 µM
Compound = COC(=O)C1CN1S(=O)(=O)c1ccc2c(C=O)c(N(C)C)ccc2c1 (stereo not drawn); read-out = cell growth or viability; technique = MTT; time = 48 h; IC50 = 20 µM
Compound = O=C(NCCCCCNc1n[n+]([O-])c2ccccc2[n+]1[O-])C(F)(F)F; read-out = cytotoxicity; technique = MTT; medium = 10% FBS medium; time = 6 h + 18 h; notes = hypoxia 3% O2; IC50 = 39.9 ± 10.5 µM
Compound = C=CC(=C)CC[C@]1(C)[C@H](C)CC[C@@]23C(=C[C@H](OC(=O)C(C)C)C[C@@H]12)[C@@H](OC(C)=O)O[C@H]3OC(C)=O; read-out = cell growth or viability; technique = SRB; IC50 = 26.2 µM
Compound = CSC(=S)N/N=C(\C)c1ccc(S(=O)(=O)N2CCC(C)CC2)cc1; read-out = cell growth; technique = MTT; IC50 = 3.53 to 5.58 µM
Compound = C=CC(OC(C)=O)c1ccc(OC)cc1 (stereo not drawn); technique = MTT; time = 24 h; IC50 = > 50 µM
Compound = [Cl][Pd-2]([Cl])([N+](=Cc1ccc[nH]1)Cc1ccco1)[N+](=Cc1ccc[nH]1)Cc1ccco1; read-out = cell growth or viability; technique = MTT; time = 24 h; IC50 = > 100 µg/mL
Compound = C[C@]12CC[C@@H]3c4ccc(O)cc4CC[C@H]3[C@@H]1CC[C@@]2(O)c1cn(CC(=O)c2cccc(F)c2)nn1; read-out = cell growth or viability; technique = resazurin; time = 72 h; IC50 = > 52.5 µM
Compound = CCCn1c(-c2cccnc2)nc(-c2ccc(C)cc2)c1-c1ccc(C)cc1; read-out = cell growth or viability; technique = SRB; time = 48 h; IC50 = > 100 µM
Compound = NS(=O)(=O)c1ccc(/N=N/c2ccc(O)c(/C=N/c3cccc(O)c3)c2)cc1; read-out = cell growth or viability; technique = MTT; time = 72 h; IC50 = 6.69 µM
Compound = O=C(CN1CCN(c2nsc3ccccc23)CC1)N1CCC(=C2c3ncccc3CCc3cc(Cl)cc(Br)c32)CC1; read-out = cell growth or viability; technique = SRB; IC50 = 22 µM
Compound = O=C(NCCCCCCCCNc1n[n+]([O-])c2ccccc2[n+]1[O-])C(F)(F)F; read-out = cytotoxicity; technique = MTT; time = 24 h; notes = normoxia; IC50 = 60.6 ± 6.2 µM
Compound = CC1=CC(c2ccccc2)=[O+][Pt-2]([NH3+])([NH3+])[O]1.O=[N+]([O-])[O-] (stereo not drawn); read-out = cell growth or viability; technique = MTT; IC50 = 33 µM
Compound = CC(=O)N[C@H](CCCNC(=N)N)C(=O)N[C@@H](CC(=O)N[C@H](Cc1ccccc1)C(=O)N[C@H](CC(=O)O)C(N)=O)c1ccc2ccccc2c1; read-out = cell growth or viability; technique = ATP luminescence; time = 72 h; IC50 = > 50 µM
Compound = Cc1c(C(=O)NNC(=O)Nc2ccc(Cl)cc2)nnn1Cc1nc2ccccc2[nH]1; time = 48 h; IC50 = 21.6 ± 1.9 µM
Compound = COc1ccc2cc3[n+](cc2c1OCc1cn(Cc2c(Cl)cccc2Cl)nn1)CCc1cc2c(cc1-3)OCO2; read-out = cell growth or viability; technique = MTT; IC50 = 73.6 µM
Compound = CC1=NN(C2=NC(=O)CS2)C(c2ccccc2)C1 (stereo not drawn); read-out = cell growth or viability; technique = LDH; time = 48 h; IC50 = 8.3 µM
Compound = C=CCc1ccc(OCc2nnc(SCC(=O)Nc3ccccc3C(=O)OC)o2)c(OC)c1; read-out = cell growth or viability; technique = MTT; time = 72 h; IC50 = 45 µM
Compound = COc1ccccc1CNC[C@](O)(COCc1ccccc1)[C@@H]1CC[C@@H](C)C[C@H]1OCc1ccccc1; read-out = cell growth or viability; technique = MTT; time = 72 h; IC50 = 1.8 µM
Compound = CCCCCCCCCCCCCCCOC(=O)/C=C/c1cccc(OC)c1; read-out = cell viability; technique = MTT; time = 48 h; notes = serum-free medium; IC50 = 6.9 ± 1 µg/mL
Compound = CC(=O)OC1CC2C(C)(C)C(O)CCC2(C)C2CCC34CC3(CCC4C(C)CC3OC(C)(C)OC(C)(C)C3O)C12C (stereo not drawn); read-out = cell growth or viability; technique = MTT; IC50 = 7.6 µM
Compound = c1ccc(-c2nc(-c3cccnc3)[nH]c2-c2ccccc2)cc1; read-out = cell growth or viability; technique = SRB; time = 24 h; IC50 = > 100 µM
Compound = CN(C)CCCO/N=C1/C=C2CCC3C(CC[C@]4(C)/C(=C/c5ccccn5)CCC34)[C@@]2(C)CC1 (stereo partly drawn); read-out = cell growth or viability; technique = MTT; time = 72 h; IC50 = 15.1 µM
Compound = FC(F)(F)Sc1ccc(-c2noc(-c3cccs3)c2C(F)(F)F)cc1; read-out = cell growth or viability; technique = MTT; time = 48 h; IC50 = 25.2 µM
Compound = CC1=C2[O][Ru-]([Cl])[O+]=C2C=CN1CCCN1C=CC2=[O+][Ru-]([Cl])[O]C2=C1C.Cc1ccc(C(C)C)cc1.Cc1ccc(C(C)C)cc1; read-out = cell growth or viability; technique = crystal violet; time = 96 h; IC50 = > 20 µM
Compound = CC(=O)[O-].O.O.O.O.[Co+2].[O-]c1ccc(Br)cc1C=NCCN1CCOCC1; read-out = cell viability; technique = MTT; time = 72 h; IC50 = 23.8 µg/mL
Compound = Cc1cc(-c2ccccc2)c2ccc3c(-c4ccccc4)cc(C)[n+]4c3c2[n+]1[Re-2]4(=[C]=O)(=[C]=O)(=[C]=O)[O]S(=O)(=O)c1cccc2ccccc12; read-out = cell growth or viability; technique = resazurin; time = 72 h; IC50 = 0.849 µM
Compound = CCN1C(=O)CS/C1=N/N=C(\C)c1c(O)c2ccccc2oc1=O; read-out = cell growth or viability; technique = MTT; time = 48 h; IC50 = 24.2 µM
Compound = COc1c(O)cc2oc3cc4c(c(O)c3c(=O)c2c1CCC(C)(C)O)CCC(C)(C)O4; read-out = cell growth or viability; time = 48 h; IC50 = > 40 µM
Compound = CCOC(=O)c1ccc(NC(=O)CCc2nc3cc(Cl)ccc3[nH]c2=O)cc1; read-out = cell growth or viability; technique = MTT; IC50 = 31.2 µM
Compound = O=C1N(Cc2cn(CC/C(=C(\c3ccccc3)c3ccc(OCCO)cc3)c3ccccc3)nn2)c2ccccc2C12OCCO2; read-out = cell growth or viability; technique = MTT; IC50 = > 100 µM
Compound = NS(=O)(=O)c1ccc(/N=N/c2ccc(O)c(C=O)c2)cc1; read-out = cell growth or viability; technique = MTT; time = 48 h; IC50 = 8.44 µM
Compound = CCN1CCC2(CC1)C/C(=N\N=C\c1ccc(O)cc1)c1ccccc1O2; read-out = cell growth or viability; technique = MTT; time = 48 h; IC50 = 35.6 µM
Compound = CC1CCc2c(sc3ncnc(Nc4ccc(Nc5ncnc6sc7c(c56)CCC(C)C7)cc4)c23)C1 (stereo not drawn); read-out = cell growth or viability; technique = MTT; IC50 = 56.2 µM
Compound = COCC[n+]1cn(C2CCCC2)c2ccccc21; read-out = cell growth or viability; technique = MTT; time = 48 h; IC50 = 29 µM
